Measured values from different studies.
Numbered parts are unrelated; each lists some results of a single study.

Block 1
Target: Hepatocyte nuclear factor 3-alpha (Foxa1, Mus musculus, UniProt P35582, residues 1-468, full length assumed)
Method: EMSA with sequencing
Molecule type: double-stranded DNA, one strand shown
Medium: in vitro
Concentration: 10 and 20 nM
Notes: whole designed probe, mean of two concentrations, ends assumed
Relative to: negative control set to 0
Reading: higher = stronger binding
Residues (chain): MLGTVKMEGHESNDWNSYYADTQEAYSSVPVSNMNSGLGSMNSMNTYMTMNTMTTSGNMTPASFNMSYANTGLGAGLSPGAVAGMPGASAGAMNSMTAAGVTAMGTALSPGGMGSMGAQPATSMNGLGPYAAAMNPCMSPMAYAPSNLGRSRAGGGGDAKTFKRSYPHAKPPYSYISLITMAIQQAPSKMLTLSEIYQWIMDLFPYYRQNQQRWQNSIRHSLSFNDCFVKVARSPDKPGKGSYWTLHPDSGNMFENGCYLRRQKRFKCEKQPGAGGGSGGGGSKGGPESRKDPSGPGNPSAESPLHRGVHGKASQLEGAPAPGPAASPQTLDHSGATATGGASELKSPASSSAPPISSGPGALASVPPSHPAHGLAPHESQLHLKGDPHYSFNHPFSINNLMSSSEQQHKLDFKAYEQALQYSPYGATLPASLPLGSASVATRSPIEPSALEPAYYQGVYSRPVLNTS
Strand	normalised bound fraction [ratio]
GTGAGCGGTGCCCATTGATGGGGAACCTAGTTCCAGTCTTAGCATGGCAATTTCTTCCTGCAACACGCTGTTTTCACGCAAGAGATCTTCTTCTTTCTTATGACTAAGAGAAAGCTAAGTAATCTAAGGGAACTTTTAGTTAGCACTCAATAGAATGACATATCATGATTTCTTCTAAAATTAAAGAATGACATTTATATTTGTATAATGAAATAATTCTTTCACTGGGATCGTGGGGAC	0.206
GTGAGCGGTGCCCATTGATGGGGAACATCCACGAACCTGGCCCTGTCTGGTAACCACAGTGAACCATCGCAAGATACAGCACTATGTGCCCAGTTGGGCTGGAATAATGACTCACCCAGTGTTGACACATCACATCCTCAGGGACACGGAAGTGTACTTGTTTTTGGAGAGGGACTAGACCTTCATCCTTGAGGTGAAGAAGATTTTCTCTCCAGGGTGTTTCACTGGGATCGTGGGGAC	0.132
GTGAGCGGTGCCCATTGATGGGGAACGGGTCCCGGGCGGCGGCAGGAATGCAGGAATGCGCACAGGCTGTGGGCGGCCAGGAGGGAGTCCCGGCGCCTGCCCCGGCCGTAGTGAGTCTTTGTGTACCCTGTCCAACACCTCCCCCCGCCAGCGCGGAAGGCCGGGCTACCTGCGCGCCTGGCAGCGCCTGGCAGCCGGCTGGGTGGGGCGCAGGGGAGCTTTCACTGGGATCGTGGGGAC	-0.0102
GTGAGCGGTGCCCATTGATGGGGAACAAAAATAGGAAAAAAACTCCTTAGATTGGTGAAACTGACCTGACCTAAGAACTAACCACCTTCTCAGATTATGAAAAACAAAAAGAAGTCTGTGTTTACATTGTTTGTTTCATTTGCCATTATTAACAGTGGCAGGACACAACTGTAAACAAACCAGCATAATCACAAAGCTGGTGCCCTATCCCACCTGCTCTTTCACTGGGATCGTGGGGAC	0.466

Block 2
Target: Sal-like protein 4, full length isoform B (SALL4, Homo sapiens, UniProt Q9UJQ4-2, residues 1-616)
Method: universal PBM
Molecule type: double-stranded DNA, one strand shown
Medium: in vitro
Concentration: not given
Notes: 8-mer, flanks averaged, mean of replicates
Reading: higher = stronger binding
Strand	E-score
AAGGCCGT	-0.202
AACCGTGT	-0.101
ACCCGCGT	-0.224
TGTGGTAA	0.0927
TAAGATAA	0.138
ACACGCCG	-0.216
CGACAACG	-0.0772

Block 3
Target: Myc proto-oncogene protein, bHLH-zipper, MAX partner unstated (MYC, Homo sapiens, UniProt P01106, residues 368-449)
Sequence of UniProt P01106 (368-449, looked up): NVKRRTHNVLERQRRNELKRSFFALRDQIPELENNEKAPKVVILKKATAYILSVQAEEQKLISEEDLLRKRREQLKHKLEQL
Method: protein-binding microarray
Molecule type: double-stranded DNA, one strand shown
Medium: in vitro
Concentration: not given
Notes: k-mer, scored over probes, only values ≥0.25
Reading: higher = stronger binding
Strand	E-score
GAAAGCAC	0.264
GTGCGCAC	0.366
ATGCGCCA	0.303
ACGTGGTG	0.45
CGCGGGTA	0.26

Mixed results
Molecule	target	test	system	setting	scale	measurement	result
PhoQ, residues 284 288 289 292 302 303 NLGVHL	PhoP, residues 12 14 15 18 19 LYFRQ (Escherichia coli, UniProt P23836)	Sort-seq, refers to: YFP reporter	E. coli	PhoQ-PhoP variant library, added: 10 µM Mg2+	relative to: high Mg2+ state, higher = stronger signaling	fold induction	3.22

Repeated from above (block 2):
Strand	E-score
ACACGCCG	-0.216
CGACAACG	-0.0772
